Assay results of several laboratories.
Each line is one published result; not all experiments were run side by side. ± gives the spread as reported.
Organism: Plasmodium falciparum

O=S(=O)(c1ccc(-c2ccc3nccc(Nc4ccnnc4)c3c2)cc1)N1CCOCC1 — EC50 (parasite growth, SYBR Green; W2): 17000 nM
CCOCC(=O)N1CCC[C@H](C(=O)NCc2nc(-c3ccc(C)nc3)cs2)C1 — EC50 (SYBR Green; 3D7; 72 h): 4.3 ± 0.83 nM
COCC(=O)N1CCC[C@H](C(=O)NCc2nc(-c3cccc(F)c3)cs2)C1 — EC50 (SYBR Green growth; asexual blood-stage parasites, 3D7; 72 h): 240 ± 49 nM
COc1cc(OC)c(CCNC(=O)c2cn3cc(-c4cc(OCC(=O)O)ccc4OC)nc3s2)c(OC)c1 — EC50 (parasite growth, LDH colorimetric; 3D7 Hyp1-Nluc; 72 h): 4530 nM
CCn1cc(C)c2c([C@@H](N)c3ccc(C(F)(F)F)nc3)n(C)nc2c1=O — EC50 (parasite growth; 3D7): 3980 nM
O=S(=O)(c1ccc(-c2ccc3nccc(Nc4ccc(OCc5cccc(F)c5)cc4)c3c2)cc1)N1CCOCC1 — EC50 (parasite growth, SYBR Green; W2): 1700 nM
CCc1nc(N)nc(N)c1-c1ccc(Cl)cc1 — EC50 (parasite growth, parasite reduction ratio; 3D7): 27 nM
O=C(NCc1nc(-c2ccccc2)cs1)[C@H]1CCCN(C(=O)COCC(F)(F)F)C1 — EC50 (SYBR Green growth; asexual blood-stage parasites, 3D7; 72 h): 78 ± 14 nM
CCn1cc(-c2nc(C)no2)c(=O)c2cc(F)c(N3CCC(Cc4ccccc4)CC3)cc21 — EC50 (parasite growth, [3H]hypoxanthine incorporation; NF54; 72 h): 3 nM
O=S(=O)(c1ccc(-c2ccc3nccc(Nc4nnc(C5CC5)s4)c3c2)cc1)N1CCOCC1 — EC50 (parasite growth, SYBR Green; TM91C235): 860 nM
CC(=O)Nc1cc(Oc2ccc3c(c2)nc(Nc2ccc(F)cc2F)n3C)ccn1 — EC50 (parasite growth, SYBR Green I; Dd2; 72 h): 2400 ± 400 nM
CCCn1ccc2c(Cc3ccc(C(F)(F)F)nc3)n(C)nc2c1=O — EC50 (parasite growth; 3D7): 12600 nM
COCC(=O)N1CCC[C@H](C(=O)NCc2nc(-c3ccc(C4CC4)cc3)cs2)C1 — EC50 (SYBR Green growth; asexual blood-stage parasites, 3D7; 72 h): 24 ± 7.4 nM
Cc1nnc(Nc2ccnc3ccc(-c4ccc(S(=O)(=O)N5CCOCC5)cc4)cc23)nc1C — EC50 (parasite growth, SYBR Green; W2): 1300 nM
COc1ccc(NC(=O)N2CCCCN3[C@H](COCCC(=O)O)[C@H](c4ccc(C#Cc5ccccc5)cc4)[C@@H]3C2)cc1 — EC50 (blood-stage growth inhibition; Dd2): 23 nM
Cc1ccc(-c2csc(CNC(=O)[C@H]3CCCN(C(=O)COCCF)[C@@H]3C)n2)cn1 (racemic) — EC50 (SYBR Green growth; asexual blood-stage parasites, 3D7; 72 h): 2100 ± 900 nM
Cc1cnc(Nc2ccnc3ccc(-c4ccc(S(=O)(=O)N5CCOCC5)cc4)cc23)s1 — EC50 (parasite growth, SYBR Green; TM91C235): 90 nM
Cc1c(C(=O)NC(C)c2nc[nH]n2)[nH]c(Cl)c1C1(c2ccc(C(F)(F)F)nc2)CC1 (centres unmarked) — EC50 (parasite growth; 3D7): 130 ± 7.1 nM
O=S(=O)(c1ccc(-c2ccc3nccc(Nc4ccncn4)c3c2)cc1)N1CCOCC1 — EC50 (parasite growth, SYBR Green; TM91C235): > 20000 nM
COCC(=O)N1CCC[C@H](C(=O)N(C)Cc2nc(-c3ccccc3)cs2)C1 — EC50 (SYBR Green growth; asexual blood-stage parasites, 3D7; 72 h): > 5000 nM
Cn1nc2c(=O)n(C3CC3)ncc2c1[C@](O)(c1cnc(C(F)(F)F)c(Cl)c1)C(F)(F)F — EC50 (parasite growth): 3.5 nM
COCC(=O)N1CCC[C@H](C(=O)NCc2nc(C3CCOCC3)cs2)C1 — EC50 (SYBR Green growth; asexual blood-stage parasites, 3D7; 72 h): > 5000 nM
CCOCCOc1ccnc2ccc(-c3ccc(S(=O)(=O)N4CCOCC4)cc3)cc12 — EC50 (parasite growth, SYBR Green; W2): 5100 nM

Excerpt of the above:
O=C(NCc1nc(-c2ccccc2)cs1)[C@H]1CCCN(C(=O)COCC(F)(F)F)C1 — EC50 (SYBR Green growth; asexual blood-stage parasites, 3D7; 72 h): 78 ± 14 nM
CCn1cc(-c2nc(C)no2)c(=O)c2cc(F)c(N3CCC(Cc4ccccc4)CC3)cc21 — EC50 (parasite growth, [3H]hypoxanthine incorporation; NF54; 72 h): 3 nM
